Experimental data pooled from the literature.
Lines come from different studies, so protocols differ. ± gives the spread as reported.
Medium: plasma

Structure (SMILES) | test system | conditions | AUC(0-inf)
CCc1c2c(nc3ccc(O)cc13)-c1cc3c(c(=O)n1C2)COC(=O)[C@]3(O)CC | human patients | intravenous, 100 mg/m^2 of parent drug | 792 ng·h/mL
[2H]C([2H])([2H])NC(=O)c1ccc(N2C(=S)N(c3ccc(C#N)c(C(F)(F)F)c3)C(=O)C2(C)C)cc1F | healthy male human | oral, 160 mg, fed, single dose | 716000 ± 200000 ng·h/mL
CN1CCC[C@]1(C)/C=C/S(=O)(=O)NC(=O)Nc1c2c(cc3c1CCC3)CCC2 | human | oral, 12.5 mg twice daily, day 14, multiple ascending dose | 29400 ng·h/mL
Cn1c(=O)oc2ccc(-c3ccc(CC(C#N)NC(=O)C4CNCCCO4)c(F)c3)cc21 (centres unmarked) | human | 10 mg once daily, day 28, geometric mean | 1600 ng·h/mL
O=C(CCc1ccc(CNC(C(=O)OC2CCCC2)C2CCCCC2)cn1)NO (centres unmarked) | human | oral, 50 mg single dose, geometric mean | 189 ng·h/mL
CC(=O)N[C@H](CC(=O)O)C(=O)N[C@H](Cc1c[nH]c2ccccc12)C(=O)N[C@H](Cc1ccccc1)C(=O)N[C@H](CCCCN)C(=O)N[C@H](C)C(=O)N[C@H](Cc1ccccc1)C(=O)N[C@H](Cc1ccc(O)cc1)C(=O)N[C@H](CC(=O)O)C(=O)N[C@H](CCCCN)C(=O)N[C@@H](C(=O)N[C@H](C)C(=O)N[C@H](CCC(=O)O)C(=O)N[C@H](CCCCN)C(=O)N[C@H](Cc1ccccc1)C(=O)N[C@H](CCCCN)C(=O)N[C@H](CCC(=O)O)C(=O)N[C@H](C)C(=O)N[C@H](Cc1ccccc1)C(N)=O)C(C)C | human, statin-treated high-risk CHD, male | oral, 500 mg daily, day 13, mean, detected subjects only | 111 ng·h/mL
CC(C)(O)c1ncc([S@](N)(=O)=NC(=O)Nc2c3c(cc4c2CCC4)CCC3)s1 | healthy human fasted | oral, 300 mg single dose, CS formulation | 63700 ng·h/mL
O=C(CCc1ccc(CNC(C(=O)O)C2CCCCC2)cn1)NO (centres unmarked) | healthy male humans | oral, 60 mg, single dose, geometric mean | 438 ng·h/mL

A few entries again:
Structure (SMILES) | test system | conditions | AUC(0-inf)
O=C(CCc1ccc(CNC(C(=O)O)C2CCCCC2)cn1)NO (centres unmarked) | healthy male humans | oral, 60 mg, single dose, geometric mean | 438 ng·h/mL
